Published values pooled from the literature.
Each numbered part is a random draw from the data of one study; scales do not carry over between parts. Changes are numbered by the printed parent chain.

Set 1 — target: CCND2, cyclin fold, Cln2 fusion (human); method: yeast growth competition, sequencing; sample: yeast; setting: weak parent motif; relative to: not given; reading: higher = stronger binding
Starting sequence: CDC6 docking peptide (human); TLKGRRLVFDNQL
`L2I` — result for “normalised enrichment score”: 0.236.
Under “normalised enrichment score”, `G4I` is recorded as 0.438.
Under “normalised enrichment score”, `R5I` is recorded as -0.0984.
`T1S`: “normalised enrichment score” 0.47.
For `L7C`, “normalised enrichment score” read 0.301.
Under “normalised enrichment score”, `Q12R` is recorded as -0.0518.
`R6H`: “normalised enrichment score” 0.0598.

Set 2 — method: DHFR PCA, deep sequencing; sample: yeast; with: (+)-ABA 4.8 µM; relative to: wild-type fitted maximum; reading: higher = stronger binding
Target: ABI1, truncated, D143A, DHFR fusion (Arabidopsis thaliana)
Setting: methotrexate growth selection, single substitutions
Starting sequence: PYL1, truncated, DHFR fusion (Arabidopsis thaliana); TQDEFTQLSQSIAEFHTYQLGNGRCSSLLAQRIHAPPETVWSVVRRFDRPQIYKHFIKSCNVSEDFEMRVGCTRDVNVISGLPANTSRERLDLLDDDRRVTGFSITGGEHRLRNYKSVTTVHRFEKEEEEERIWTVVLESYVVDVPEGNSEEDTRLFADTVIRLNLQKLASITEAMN; partner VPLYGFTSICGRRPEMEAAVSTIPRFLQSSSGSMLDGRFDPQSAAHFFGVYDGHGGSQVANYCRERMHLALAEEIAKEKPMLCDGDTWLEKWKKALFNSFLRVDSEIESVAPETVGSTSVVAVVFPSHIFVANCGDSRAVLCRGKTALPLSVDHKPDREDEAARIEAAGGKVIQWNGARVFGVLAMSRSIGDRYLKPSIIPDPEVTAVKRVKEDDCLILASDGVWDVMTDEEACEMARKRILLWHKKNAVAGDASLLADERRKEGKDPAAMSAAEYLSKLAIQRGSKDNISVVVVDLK
Under “relative binding score”, `Y141V` is recorded as 2.25%.
`F47N` — result for “relative binding score”: -31.4%.
`D65W`: “relative binding score” 22.7%.

Set 3 — method: protein binding microarray; molecule type: double-stranded DNA, one strand shown; sample: in vitro; concentration: not given; relative to: not given; reading: higher = stronger binding
Target: Histone acetyltransferase KAT6A, both winged helices, GST fusion (KAT6A, Homo sapiens, UniProt Q92794, residues 1-181)
Setting: 8-mer, flanks averaged, mean of 2 arrays, mostly near background
Target sequence (chain): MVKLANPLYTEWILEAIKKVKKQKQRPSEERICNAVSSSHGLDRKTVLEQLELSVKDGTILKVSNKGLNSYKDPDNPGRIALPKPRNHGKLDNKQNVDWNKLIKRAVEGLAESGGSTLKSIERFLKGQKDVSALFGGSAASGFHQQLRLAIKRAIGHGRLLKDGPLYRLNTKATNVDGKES
`CCGGCTGC` has an E-score of 0.154.
With `TCGTCACA` the E-score was -0.0118.
The E-score of `ATATAAGA` is reported as -0.0125.
For `CCTTAAGA`, the E-score was -0.128.
For `TGAGACCA`, the E-score was -0.115.
`GCTTGCTA` has an E-score of -0.0928.
`AATCGTTC` has an E-score of 0.016.

Further values, each from its own experiment
`PhoQ, residues 284 288 289 292 302 303 SACGEM` has a fold induction of 12.5 (PhoP, residues 12 14 15 18 19 SEGLL (Escherichia coli, UniProt P23836); Sort-seq, measured: YFP reporter; E. coli; PhoQ-PhoP variant library, with: 10 µM Mg2+; relative to: high Mg2+ state, higher = stronger signaling).

Some of these lines once more (set 1):
`R6H`: “normalised enrichment score” 0.0598.
